# Measurements from different studies.
# A part holds a random share of what one study measured. Changes are numbered by the printed parent chain.

# Study 1
# Target: CCNE1, cyclin fold, Cln2 fusion (human)
# Technique: yeast growth competition, sequencing
# Sample: yeast
# Setting: strong parent motif
# Reference: not given
# Reading: higher = stronger binding
# Starting sequence: REPIN1 docking peptide (human); QSFRGWVALVLHL
Variant,normalised enrichment score
QSFRGWVAAVLHL [L9A],0.649
QSFRGWVALALHL [V10A],0.799
QSFRGWVALVLAL [H12A],1.08
QAFRGWVALVLHL [S2A],1.1
QSFRGWVALVAHL [L11A],1.5
QSFAGWVALVLHL [R4A],0.565

# Study 2
# Target: Centromere-binding protein 1, full length, N-terminal tag (CBF1, Saccharomyces cerevisiae, UniProt P17106, residues 1-351)
# Chain of UniProt P17106 (whole entry, looked up): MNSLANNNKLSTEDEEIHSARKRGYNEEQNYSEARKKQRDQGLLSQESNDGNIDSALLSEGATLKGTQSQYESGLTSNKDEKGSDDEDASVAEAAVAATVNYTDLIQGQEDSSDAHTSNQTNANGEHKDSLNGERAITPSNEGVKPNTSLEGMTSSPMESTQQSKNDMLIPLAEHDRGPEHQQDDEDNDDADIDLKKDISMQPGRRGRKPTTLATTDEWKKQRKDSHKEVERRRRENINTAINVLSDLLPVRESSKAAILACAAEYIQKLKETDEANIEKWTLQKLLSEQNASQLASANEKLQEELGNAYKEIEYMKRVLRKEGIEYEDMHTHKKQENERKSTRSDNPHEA
# Technique: protein-binding microarray
# Molecule type: double-stranded DNA, one strand shown
# Sample: in vitro
# Tested at: 0.8 µM
# Setting: whole 60-bp probe, no competitor
# Reading: higher = stronger binding
# Constant ends, left off below: … GTCTTGATTCGCTTGACGCTGCTG
Oligonucleotide,fluorescence intensity [a.u.]
CTAGGGGCATATTGACGCGTGGAAGAATAGAAGTTC,570
GAATATTATTCCAACCATCATGTGTAAGCCAAATAG,712
CTACGTTACCAACGTCACCTCCCCAAGCTCTTGTTC,473
CTAAGCTTATAGAAGCACGTGACCACAATTCACTTC,30200
GAAAGTGACTAGTGACTGGTGACGACATGAGCCTAG,545
CTAGCAACAAATACATGTGAGCTTAGAAAGATATTC,657
GAAAAAGTATACAACTACGTGGCTAAAAATTTTTAG,496
GAATATTCTTAAATACGCATGACCATCCGCGAATAG,790

# Study 3
# Target: PABPC1L2, full length, GST fusion (mouse, UniProt A0ABA7IW68)
# Technique: RNAcompete
# Molecule type: RNA
# Sample: in vitro
# Tested at: 20 nM
# Setting: 7-mer, probes averaged, single round
# Reference: mean of 7-mers
# Reading: higher = stronger binding
# Residues (chain): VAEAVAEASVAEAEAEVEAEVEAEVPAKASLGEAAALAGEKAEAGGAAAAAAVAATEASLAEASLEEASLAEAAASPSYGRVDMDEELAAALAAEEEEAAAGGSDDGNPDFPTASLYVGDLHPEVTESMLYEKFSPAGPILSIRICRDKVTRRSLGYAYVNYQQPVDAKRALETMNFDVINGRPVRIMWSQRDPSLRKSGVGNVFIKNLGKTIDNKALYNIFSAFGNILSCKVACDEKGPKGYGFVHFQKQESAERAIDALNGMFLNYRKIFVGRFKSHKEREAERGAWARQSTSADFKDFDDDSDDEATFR
Oligonucleotide,7-mer Z-score
CUAGAGA,0.0225
UGGCAGA,0.253
GCGUCGA,-0.219
GCCUUAA,-0.0482
GGGUCCA,0.0968
AGGGAUC,0.305
GGAAUGC,0.0442
AACGCCU,-0.113

# Mixed results
Molecule,target,observed,molecule type,tested at,endpoint,value
YARNFLIPF,"HLA class I histocompatibility antigen, C alpha chain, allele C*04:01 (Homo sapiens, UniProt P10321)",peptide-MHC binding,peptide,concentration not given,binding,inactive

# Excerpt of the above (study 1):
Variant,normalised enrichment score
QSFRGWVALVAHL [L11A],1.5
QSFRGWVALALHL [V10A],0.799
QAFRGWVALVLHL [S2A],1.1
